Assay results from different studies.
A part holds a random share of what one study measured.

Series 1 — method: protein-binding microarray; form: double-stranded DNA, one strand shown; matrix: in vitro; concentration: 250 nM; setting: 60-bp whole probe; added: salmon DNA 0.4 mg/ml; relative to: random background probes; reading: higher = stronger binding; constant ends, left off below: GCCTAGCAC … GTCTTGATTCGCTTGACGCTGCTG
Target: Interferon regulatory factor 5, full length, phosphomimetic (IRF5, Homo sapiens, UniProt Q13568-2, residues 1-514, K96S/S451D/S453D/S456D/S462D)
| Sequence | log fluorescence [z-score] |
| --- | --- |
| AGCACTTTGGCATGTCTTGACGTGCTA | -0.764 |
| GACGATTTCAGTATCCAGACGTGCTAG | 1.38 |
| GACGGTTTCGGGTTTAGGGACGTGCTA | 7.24 |
| TTAGATATCGGGACTGGAATAGTGCTA | 1.23 |
| GACGATCTCAGTTTCGCGACGTGCTAG | 1.24 |
| TCCTGGAGTCTATGCTGCTGGTGCTAG | -0.752 |
| GAAGATTTCGGGTTTCGAGACGTGCTA | 4.87 |
| TTAGGTTTCGACACTGGGCTAGTGCTA | 5.59 |
| GACGAACTGGGGGTTCGAGACGTGCTA | -0.197 |
| GACGGGCTCCTTCTCCTGACGTGCTAG | -0.554 |
| GACGGACTGCTTTGCCTGACGTGCTAG | -0.694 |
| AGTTCTCTGAAGACTCTCTTGGTGCTA | -0.000561 |
| TTTTTTCTTTTATTAGTGACGTGCTAG | 2.2 |
| GACGGTTCCGGTTTCGGGATGTGCTAG | 5.43 |
| TCATTACTAAAATTTCATACTGTGCTA | 1.18 |
| GACGGTTTCGACATTGGGGACGTGCTA | 4.8 |
| TTAGGACTACTTCTCCTTTAGTGCTAG | -0.0593 |
| GACGGTATCGTTCTCCTGACGTGCTAG | 1.74 |
| CTTCTCCTCCAGGTTCTCTGAGTGCTA | -0.148 |

Series 2 — method: RNA Bind-n-Seq; form: RNA; matrix: in vitro; concentration: 365 nM; relative to: no-protein control; reading: higher = stronger binding
Target: RNA binding protein fox-1 homolog 2, RRM domain, GST-SBP tag (RBFOX2, Homo sapiens, UniProt O43251-10, residues 100-194)
Setting: natural RNA segment, single round, ends assumed
Constant ends, left off below: GGGAGUUCUACAGUCCGACGAUC … UGGAAUUCUCGGGUGCCAA
Construct (chain): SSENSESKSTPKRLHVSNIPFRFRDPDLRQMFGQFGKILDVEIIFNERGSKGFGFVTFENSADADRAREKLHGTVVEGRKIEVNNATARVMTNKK
| Sequence | RBNS enrichment (R) |
| --- | --- |
| GAAUGGAGGAGGGAAGUUGAAGGAGCCACCUCCUCUGUCUACCCACCCGUCCCCUUCACGCCCUUGACACUAAGGAGUGGGGGGCCCUGGACUGCCCCUUCCUCCCCCAU | 0.453 |
| CUACACUGACCCAGAGGCAUAGGAAGGCUUGCUGUCUGCCCUGCACCACCCACAGAGCUGCGGCACCCAUAGCAGCUGGGCCUGAGCCUGAGCACUAGCCGGAGUCUGGG | 0.361 |
| CAGAGGCCCCAUUAGCUUUAAAAUGUAGCCCCAGGUUGGAGCUGGGAACACUGUACUGGCCACUUACCCUCUGGGGCCUCAGCUUUCCCUCCGGAAGGCUGGGAGGAGGU | 0.34 |
| UGCACCAAGGGCACAAGAGUGGCAGUCCAGAUCUGCCACUUGUUUUAAUAAAGCCUUCUCUCUCACCGCUAUCAAUGUCUGUACCCUCUGGGCAUGGCUAUGUGUGAAGU | 0.56 |
| AAAGGAAGGUAACGAUUGCUGGGAUUCCAGGAGAGAGACUUUAAGACUUUGUCUGAGCUCAUGACAACAUAUUGCAAAUGGCCGGGCCACUCGUGGCCAGACGGACAGCA | 0.816 |
| CAGUAUUAAGGUUUUCAACCGGAAGGAGGCCAACCAGCCCGACAGUGCCAUCCCCACCUUCACCUCGGAGGGAUGGAGAAAGAAGUGGAGACAGUCCUUUCCCACCAUUC | 0.283 |
| CUGUGCUUUAUAAACUAUAUUAGAGGGACUGGGUUUAAAAAAAAAGAUAUAGGGUAGAAAUAAGAGCUAUACUUACAAGAGUCAAUAGAUCACUGACUUCUCUUUAACUG | 0.425 |
| UUCCGUGGGGGCACCUGACAAUGACCCGGGUGGAGAUGGGGCAUGGAGGAGUAGGAAGACCCAGCCCUAUUUGACUGGGGAGAGGAGGAUCUGGAGUCCUUCAUGCCCAG | 1.65 |

Series 3 — method: RNA Bind-n-Seq; form: RNA; matrix: in vitro; concentration: 1 µM; setting: whole 134-nt RNA, ends assumed; added: 150 mM KCl; relative to: input library; reading: higher = stronger binding
Target: Ras GTPase-activating protein-binding protein 1, C-terminal RGG region (G3BP1, Homo sapiens, UniProt Q13283)
Chain of UniProt Q13283 (whole entry, looked up): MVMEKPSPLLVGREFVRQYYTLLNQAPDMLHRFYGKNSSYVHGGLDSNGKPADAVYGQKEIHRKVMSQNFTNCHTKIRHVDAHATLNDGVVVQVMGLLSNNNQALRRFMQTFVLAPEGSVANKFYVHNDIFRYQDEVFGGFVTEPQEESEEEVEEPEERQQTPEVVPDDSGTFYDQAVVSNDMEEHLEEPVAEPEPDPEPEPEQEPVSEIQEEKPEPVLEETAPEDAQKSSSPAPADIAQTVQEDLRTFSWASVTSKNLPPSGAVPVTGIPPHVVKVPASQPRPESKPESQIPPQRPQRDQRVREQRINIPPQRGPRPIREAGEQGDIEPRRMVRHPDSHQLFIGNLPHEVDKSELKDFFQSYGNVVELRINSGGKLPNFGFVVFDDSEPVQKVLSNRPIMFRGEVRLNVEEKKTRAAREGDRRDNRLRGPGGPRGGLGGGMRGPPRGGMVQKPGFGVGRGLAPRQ
Constant ends, left off below: GGGAGUUCUACAGUCCGACGAUC … UGGAAUUCUCGGGUGUCAAGG
| Sequence | log2 enrichment |
| --- | --- |
| CACAGACAACACGCACCCACACAGACACAGAGGGAUGGGGUUGGGAUGGGGACAGGGUGCACAGCAGGGCGGGGUAGGACCCCAGCCCCU | -0.0483 |
| ACCAUGCAGGUGGGCAUCUUUGGGAAGUGGGGCAAGGGGGGGAUAGGGAGGGGGGUAACACUUUGGGAACAGGUGGUCCCAGGUCUUUUC | 2.28 |
| UCCUGUGCUACACAUCGUAUGUACCGAAUCGGGGUUUUUUGGGGUUUUUUGGUUUUUUGGAAAGUAUUAUGUUACGCCGUUCGGAUCUGC | -0.517 |
| UCAAGUCCUGUGCUACACAUCGUAUGUACCGAAUCGGAAAGGGAAAGGAAAGGGAAAGUAUUAUGUUACGCCGUUCGGAUCUGCACUUCC | -1.41 |
| CACAGACAACACGCACCCACACAGACACAGAGGGAAGGGGUUGGGAUGGGGACAGGGUGCACAGCAGGGCCGGGUAGGACCCCAGCCCCU | -1.02 |
| UCCUGUGCUACACAUCGUAUGUACCGAAUCGGGGAAAGGGGUUUGGGGUUUUUUUGGGGAAAGUAUUAUGUUACGCCGUUCGGAUCUGCA | 2.63 |
| AAGUCCUGUGCUACACAUCGUAUGUACCGAAUCGGGUUUUGGGGUUUUGGUUUUGGAAAGUAUUAUGUUACGCCGUUCGGAUCUGCACUU | -1.24 |
| UCCUCAAGUCCUGUGCUACACAUCGUAUGUACCGAAUCGGAAAGGAGGAGGAAAGUAUUAUGUUACGCCGUUCGGAUCUGCACUUCCAGC | -1.5 |
| GUCCUGUGCUACACAUCGUAUGUACCGAAUCGGGGCCCCCGGGCCCCCGGGCCCCCGGGAAAGUAUUAUGUUACGCCGUUCGGAUCUGCA | -1.4 |

Series 4 — method: RNA Bind-n-Seq; form: RNA; matrix: in vitro; concentration: 100 nM; relative to: input RNA pool; reading: higher = stronger binding
Target: RING finger protein unkempt homolog, zinc fingers 1-6, SBP tag (UNK, Homo sapiens, UniProt Q9C0B0, residues 30-357)
Chain of UniProt Q9C0B0 (30-357, looked up): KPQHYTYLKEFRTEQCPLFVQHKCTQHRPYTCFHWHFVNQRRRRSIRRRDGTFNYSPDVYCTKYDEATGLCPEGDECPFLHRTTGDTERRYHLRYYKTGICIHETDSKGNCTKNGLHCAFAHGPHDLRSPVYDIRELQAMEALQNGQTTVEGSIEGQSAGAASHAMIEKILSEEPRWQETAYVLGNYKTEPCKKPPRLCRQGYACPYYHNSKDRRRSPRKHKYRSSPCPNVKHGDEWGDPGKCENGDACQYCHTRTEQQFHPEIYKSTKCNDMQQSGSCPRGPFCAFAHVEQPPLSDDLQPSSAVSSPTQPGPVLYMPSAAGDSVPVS
Setting: RNA with constant flanks, vertebrate orthologous sites, ends assumed
Constant ends, left off below: GGGAGUUCUACAGUCCGACGAUC … CAACAGAGGAUUGAGCAUCA
| Sequence | bound/input enrichment |
| --- | --- |
| GUGUUUUGGUACCACUUGAUGUACCAAUACUCAUCCUUUUUUCAUUAUACCAACUAUCGCUAGAAGUAGGAGUUUAAUAUUUUUAAAAAUUUUACAUUGCUGUAUAUUCAAAAUUUUAAA | 0.699 ratio |
| AAAUCAGUAGAAUUACAUAAUACUAAAGUUGCAGUUAAAGGAUUUCCAAGUAUGUGUUGGUAGUUACUAAAAGAAUUAUAGCUGUUAUUGCCUUGUAUUUAUAGCCCUUGUUUCAGGUUU | 0.724 ratio |
| GUGACUUUGGACGUCCGCUCCUCCCAGGUGCGGUGAGUGCUUAACCUCCGGUCUUGCGGCUUAGCUUUUCUCUCGGGGACUCGAGGCCUCUGUUGCAACCAUGCUCCGCCAGAUCAUCGG | 0.61 ratio |
| UAUCUUUAGGAUGAAGCUCUUGCACCGAGUGUCACAGGUCUGGAAAACAGAUGGCUUGACAAGUUGUUCUUAUAAAUUAUUGUCUGUGGAACACAAUCCUUUAUAUAUCAACAUCACCGU | 0.84 ratio |
| AGCCAUUUUUUUCCACGUUUUCUGUAAAUAAUGGAUAAUCGUUUUUAAAAAUUUUAUUUUUAGUGCUGUUUUAGCAAUGUGGAUAGAUCAUAAAUGUACUUGCUGAAUUCAAUUAUUUUU | 0.423 ratio |
| ACGCUUUGACAUCAAGUUGACAAUCAGCUCGUGACCUCAGCCACGAUGAGCACUCAAAUCGAGACAAAUAAAAUGUAGAGAGAAUAUAAGAGUUCAGAUAAACACCACUAGUCUUUGAAC | 0.214 ratio |
| CAUGCACAUGCCGCUGUCACCAAGAGCAAACAUGGUCUCCAAACUCUCCAAGUAGCCUUUUUAGUAUUCUCCCUCUCUUUCCUUCUGUUUCUCCAGUGCUUUAAAUGAUUAGAAGUCCUG | 2.95 ratio |
| UGAUGUGGACACAAUUGCCUACAAUAAUGAAACCGACAGGAUUUUUUUUAAAGGCAUAUUUAGGCAUUUUUCCCCAGGCAGAUCAUUCUGAGUGUGCGAGUGUGUGUGCACAUGUUACAA | 0.388 ratio |

For quick reference, copied from above (series 4):
| Sequence | bound/input enrichment |
| --- | --- |
| ACGCUUUGACAUCAAGUUGACAAUCAGCUCGUGACCUCAGCCACGAUGAGCACUCAAAUCGAGACAAAUAAAAUGUAGAGAGAAUAUAAGAGUUCAGAUAAACACCACUAGUCUUUGAAC | 0.214 ratio |
| GUGUUUUGGUACCACUUGAUGUACCAAUACUCAUCCUUUUUUCAUUAUACCAACUAUCGCUAGAAGUAGGAGUUUAAUAUUUUUAAAAAUUUUACAUUGCUGUAUAUUCAAAAUUUUAAA | 0.699 ratio |
| CAUGCACAUGCCGCUGUCACCAAGAGCAAACAUGGUCUCCAAACUCUCCAAGUAGCCUUUUUAGUAUUCUCCCUCUCUUUCCUUCUGUUUCUCCAGUGCUUUAAAUGAUUAGAAGUCCUG | 2.95 ratio |
| UGAUGUGGACACAAUUGCCUACAAUAAUGAAACCGACAGGAUUUUUUUUAAAGGCAUAUUUAGGCAUUUUUCCCCAGGCAGAUCAUUCUGAGUGUGCGAGUGUGUGUGCACAUGUUACAA | 0.388 ratio |
